Experimental data pooled from the literature.
Compare with care: the assays were run in different laboratories. Several values in a cell are separate wells, animals, samples, runs or records. ± marks the error that the study gave.
Chain of UniProt P08069 (whole entry, looked up): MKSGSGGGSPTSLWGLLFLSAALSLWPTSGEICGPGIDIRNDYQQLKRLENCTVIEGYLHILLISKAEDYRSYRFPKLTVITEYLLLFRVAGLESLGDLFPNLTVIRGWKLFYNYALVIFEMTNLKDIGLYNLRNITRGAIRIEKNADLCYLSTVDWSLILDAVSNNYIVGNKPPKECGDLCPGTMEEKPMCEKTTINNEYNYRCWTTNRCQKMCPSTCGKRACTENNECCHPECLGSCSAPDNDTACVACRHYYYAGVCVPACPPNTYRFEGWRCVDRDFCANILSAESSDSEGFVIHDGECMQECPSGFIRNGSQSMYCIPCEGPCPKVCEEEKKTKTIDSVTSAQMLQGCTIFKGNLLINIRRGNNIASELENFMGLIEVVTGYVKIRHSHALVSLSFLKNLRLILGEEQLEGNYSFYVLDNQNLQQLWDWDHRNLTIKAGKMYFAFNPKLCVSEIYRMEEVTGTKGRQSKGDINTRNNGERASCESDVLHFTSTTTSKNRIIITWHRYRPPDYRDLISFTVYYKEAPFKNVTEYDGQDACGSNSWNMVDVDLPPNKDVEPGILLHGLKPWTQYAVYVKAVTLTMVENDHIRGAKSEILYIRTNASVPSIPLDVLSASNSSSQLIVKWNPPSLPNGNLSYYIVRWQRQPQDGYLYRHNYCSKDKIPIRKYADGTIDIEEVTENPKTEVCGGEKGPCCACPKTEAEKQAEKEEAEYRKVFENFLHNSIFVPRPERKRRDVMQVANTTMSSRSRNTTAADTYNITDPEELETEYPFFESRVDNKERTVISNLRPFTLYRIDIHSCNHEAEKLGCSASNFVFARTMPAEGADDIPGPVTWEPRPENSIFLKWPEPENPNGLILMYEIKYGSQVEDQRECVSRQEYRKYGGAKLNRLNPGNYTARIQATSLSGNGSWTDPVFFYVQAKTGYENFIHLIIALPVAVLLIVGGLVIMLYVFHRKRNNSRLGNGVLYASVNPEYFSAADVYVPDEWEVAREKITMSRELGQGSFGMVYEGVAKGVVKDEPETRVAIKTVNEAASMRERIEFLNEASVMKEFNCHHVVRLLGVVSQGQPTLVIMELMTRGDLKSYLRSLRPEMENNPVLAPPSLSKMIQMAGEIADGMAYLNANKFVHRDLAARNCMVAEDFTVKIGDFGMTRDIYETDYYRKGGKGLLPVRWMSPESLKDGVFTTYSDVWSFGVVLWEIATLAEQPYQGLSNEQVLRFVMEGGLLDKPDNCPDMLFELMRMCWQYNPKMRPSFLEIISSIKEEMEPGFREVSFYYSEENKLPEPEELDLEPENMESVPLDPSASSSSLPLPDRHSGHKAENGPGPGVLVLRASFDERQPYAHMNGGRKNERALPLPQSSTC

O=C(CCN1CCN(C/C=C/c2ccccc2)CC1)Nc1ccc2c(c1)CCC2 — larval motion (zebrafish larvae, 7 dpf; 10 µM, minute 6): 16.8 ± 2.1 pixels/frame
C=C1CC[C@H](OCCCNC(=O)CCOCCOCCOCCOCCOCCOCCOCCOCCOCCOCCOCCOCCOCCOCCOCCOCCOCCOCCOCCOCCOCCOCCOCCOCCOCCOCCOCCOCCOCCOCCOCCOCCOCCOCCOCCOCCNC(=O)CCN2C(=O)CC(SC[C@H](NC(=O)[C@H](Cc3ccccc3)NC(=O)[C@H](CC(N)=O)NC(=O)[C@H](Cc3c[nH]cn3)NC(=O)[C@@H](NC(=O)[C@H](CC(=O)O)NC(=O)[C@H](CCC(N)=O)NC(=O)[C@H](CC(C)C)NC(=O)[C@H](CCCCN)NC(=O)[C@H](CCCCN)NC(=O)[C@H](CCCNC(=N)N)NC(=O)[C@H](CC(C)C)NC(=O)[C@H](Cc3c[nH]c4ccccc34)NC(=O)[C@H](CCC(=O)O)NC(=O)[C@@H](NC(=O)[C@H](CCCNC(=N)N)NC(=O)[C@H](CCC(=O)O)NC(=O)[C@H](CCSC)NC(=O)[C@H](CO)NC(=O)[C@H](CC(N)=O)NC(=O)[C@H](CC(C)C)NC(=O)[C@H](Cc3c[nH]cn3)NC(=O)[C@H](CCCCN)NC(=O)CNC(=O)[C@H](CC(C)C)NC(=O)[C@H](CC(N)=O)NC(=O)[C@H](Cc3c[nH]cn3)NC(=O)[C@H](CCSC)NC(=O)[C@H](CC(C)C)NC(=O)[C@H](CCC(N)=O)NC(=O)[C@@H](NC(=O)[C@H](CCC(=O)O)NC(=O)[C@H](CO)NC(=O)[C@@H](NC(=O)[C@@H](N)CO)C(C)C)[C@@H](C)CC)C(C)C)C(C)C)C(=O)O)C2=O)C/C1=C/C=C1\CCC[C@]2(C)[C@@H]([C@H](C)CCCC(C)(C)O)CC[C@@H]12 (stereo partly drawn) — AUC(0-t) (male Sprague-Dawley rat, plasma; subcutaneous, 100 µg/kg, single dose): 468 ng·h/mL
COC1CN([C@H]2CC[C@H]([C@@]3(C)Oc4c(Cl)cc(C(=O)NCc5c(SC)cc(C)[nH]c5=O)c(C)c4O3)CC2)C1 — log2 fold change (RNA-seq, refers to: IL18R1 mouse homolog; mouse, HT-1376 xenograft, whole blood; dose not given; relative to: vehicle): 0.024
O=C(CCN1CCN(C/C=C/c2ccccc2)CC1)Nc1ccccc1 — larval motion (locomotor activity in dark; zebrafish larvae, 7 dpf; 10 µM, minute 7, dark phase): 2.8 ± 0.6 pixels/frame
CCCC[C@H](NC(=O)CCCCCCCNC(=O)CN1CCN(CC(=O)O)CCN(CC(=O)O)CC1)C(=O)N[C@H]1CC(=O)NCCCC[C@@H](C(N)=O)NC(=O)[C@H](Cc2c[nH]c3ccccc23)NC(=O)[C@H](CCCNC(=N)N)NC(=O)[C@@H](Cc2ccccc2)NC(=O)[C@H](Cc2c[nH]cn2)NC1=O [technetium-99m labelled] — tissue uptake (C57 mouse, muscle; intravenous, 0.037 MBq, 2 h): 0.01 ± 0.01 %ID/g
N#Cc1cc(C(=O)OCC[18F])c(C(F)(F)F)nc1N1CCN(C(=O)Cc2ccccc2)CC1 — binding potential (BPND) (model, four-parameter reference tissue, PET; human epilepsy patients, epileptic focus; dose not given, unit not given; relative to: contralateral reference region): 0.23
C=CC(=O)Nc1cccc(Cn2ncc3cnc(Nc4cnn(CCOC)c4)nc32)c1 — binding (human MINK; KINOMEscan; 100 nM; relative to: control): 84%
CCN(C(=O)c1cc(F)ccc1Oc1nncnc1N1CCC2(C1)CN([C@H](CCCN(C)CCOC)C(C)C)C2)C(C)C — GI50 (MDA-MB-435; cell growth or viability; 72 h): > 10000 nM
Cc1cn(CC(=O)N(CCNC(=O)CN(CCNC(=O)CN(CCNC(=O)CN(CCNC(=O)CN(CCNC(=O)CN(CCNC(=O)CN(CCNC(=O)CN(CCN)C(=O)Cn2cnc3c(=O)[nH]c(N)nc32)C(=O)Cn2cnc3c(N)ncnc32)C(=O)Cn2cc(C)c(=O)[nH]c2=O)C(=O)Cn2cnc3c(=O)[nH]c(N)nc32)C(=O)Cn2cc(C)c(=O)[nH]c2=O)C(=O)Cn2cnc3c(=O)[nH]c(N)nc32)C(=O)Cn2cnc3c(N)ncnc32)CC(=O)NCCN(CC(=O)NCCOCCOCC(N)=O)C(=O)Cn2cnc3c(N)ncnc32)c(=O)[nH]c1=O — Tm (UV melting; RNA duplex with T·U mismatch; pH 7.2, 1 µM each strand): 31.3 °C
CN(C)C(=O)c1ccnc(N2Cc3cn(Cc4ccc(F)cc4F)nc3C2)n1 — paired-pulse ratio (mouse, hippocampal slice, Schaffer collaterals; dose not given, interstimulus interval 500; relative to: second over first response): 1.55 and 1.13 and 1.05 and 1.14 and 1.09 and 1.12 and 1.04 and 1.17
CCOC(=O)C1CCN(CCC(=O)Nc2ccccc2F)CC1 — larval motion (zebrafish larvae, 7 dpf; 10 µM, minute 6): 0.5 ± 0.4 pixels/frame
C=C(NC(=O)c1csc(-c2nc3c(cc2O)-c2nc(cs2)C(=O)NC(C(C)O)C(=O)NC(=C(C)OC)c2nc(cs2)C(=O)NC2c4nc(cs4)C(=O)NC(COC(=O)c4c5c6c(cccc6n4O)COC(=O)C(OC4CC(C)(O)C(N(C)C)C(C)O4)C2OC5)c2nc-3cs2)n1)C(N)=O (stereo not drawn) — AUC(0-last) (cynomolgus monkey, male, plasma; intravenous infusion, 3 mg/kg, multiple doses, day 7): 21500 ng·h/mL
CO.COc1ccc2c(c1)c(CC(=O)[O-])c(C)n2C(=O)c1ccc(Cl)cc1.COc1ccc2c(c1)c(CC(=O)[O-])c(C)n2C(=O)c1ccc(Cl)cc1.O.[Co+2].c1ccc(Nc2ccccn2)nc1 — DPPH radical scavenging (DPPH; methanol; concentration not given, 60 min): 10.4 ± 0.79%
S=C(S)OC1CC2CC1C1CCCC21 (stereo not drawn) — extracellular enkephalin concentration (inhibitor, LC-MS/MS, refers to: Met- or Leu-enkephalin; mouse striatal brain slices; 500 µM, 20 min, together with: 50 mM KCl): 398 pM and 594 pM and 389 pM and 658 pM and 749 pM and 91 pM and 101 pM and 108 pM
COc1cc(O)ccc1CCC(c1ccc(O)cc1)c1cc2c(c(C)c1O)OC(c1ccc(O)cc1)CC2 (mixture of isomers) — 14-HDHA level (human blood; 1 µM, together with: A23187): 583 ± 73 pg/mL
CN1CCCNC(=O)c2cccc(c2)C(=O)NCCCN(C)CCCNc2cccc3c2C(=O)c2cccc(c2C3=O)NCCC1 — log2 fold change (SAS; RNA-Seq, refers to: SDF2L1 mRNA; 1 µM, 6 h; relative to: untreated cells): -0.648
C[C@@H]1CN(c2ccnc(C(=O)N[C@H]3C[C@@H]3c3ccccc3)c2)CC[C@@H]1O — creatine concentration (female heterozygous Slc6a8 P549L mice, brain; oral, 30 mg/kg once daily): 1040 µg/mL and 1170 µg/mL and 1070 µg/mL
CC(C)C[C@H](NC(=O)CNC(=O)[C@H](CCC(N)=O)NC(=O)[C@H](CC(C)C)NC(=O)[C@H](CC(C)C)NC(=O)[C@H](CCCNC(=N)N)NC(=O)[C@H](CCC(N)=O)NC(=O)[C@H](CC(C)C)NC(=O)[C@H](CCCNC(=N)N)NC(=O)[C@H](C)NC(=O)CNC(=O)[C@H](CCC(=O)O)NC(=O)[C@H](CCCNC(=N)N)NC(=O)[C@H](CC(C)C)NC(=O)[C@H](CCCNC(=N)N)NC(=O)[C@H](CO)NC(=O)[C@H](CC(C)C)NC(=O)[C@H](CCC(=O)O)NC(=O)[C@H](CO)NC(=O)[C@@H](NC(=O)[C@H](Cc1ccccc1)NC(=O)[C@@H](NC(=O)CNC(=O)[C@H](CC(=O)O)NC(=O)C(C)(C)NC(=O)[C@@H](N)Cc1c[nH]cn1)[C@@H](C)O)[C@@H](C)O)C(=O)N[C@@H](CC(C)C)C(=O)N[C@@H](CCC(N)=O)C(=O)NCC(=O)N[C@@H](CC(C)C)C(=O)N[C@H](C(=O)NCC(=O)N[C@@H](CCCCNC(=O)COCCOCCNC(=O)COCCOCCNC(=O)CC[C@H](NC(=O)CCCCCCCCCCCCCCCCC(=O)O)C(=O)O)C(N)=O)C(C)C — food intake (DIO C57BL/6J mice; sc, 300 nmol/kg twice daily, 8 days): no effect
CN(Cc1ccc(/C=C/C(=O)NO)cc1)CC12CC3CC(CC(C3)C1)C2 — EC50 (refers to: H3K9ac; mouse; 24 h, cell-based): 100 nM
COCCNCCOc1cc(C)cc(C(C)C)c1 — larval motion (zebrafish larvae, 7 dpf; 10 µM, minute 4): 15.5 ± 1.3 pixels/frame
CC1(C)CC[C@@]2(CO)C(=C3C=C[C@@H]4[C@@]5(C)CC[C@H](O)[C@@](C)(CO)[C@@H]5CC[C@@]4(C)[C@]3(C)C[C@@H]2O)C1 — steatosis area (H&E staining; Mus musculus, chronic-plus-binge ethanol, liver; dose not given): 0.454% and 0.435% and 0.468% and 0.429% and 0.451% and 0.418%
Cn1ncc2cc(-c3cncc(Cl)c3N3CCC4(CCNC4=O)CC3)ccc21 — log2 fold change (LS174T; gene expression, microarray, refers to: MT1F mRNA; concentration not given, 24 h; relative to: untreated cells): -2.01
Cc1cc(OCCOCCn2ccnc2)cc(C(C)C)c1 — larval motion (locomotor activity in dark; zebrafish larvae, 7 dpf; 10 µM, minute 1, dark phase): 1.8 ± 0.9 pixels/frame
Nc1ncc(-c2cc(-c3cnn(CC(F)(F)F)c3)ncc2F)nc1C(=O)NC1CNCC(F)C1 (stereo not drawn) — remaining binding (PIK3CA; KINOMEscan; 1 µM; relative to: DMSO control): 87%
Cc1cc(NC(=O)C(=O)N2C[C@@H](C)CC[C@@H]2c2ccc3scnc3c2)cnc1N — models with durable regression (mouse, MTAP-deleted CDX and PDX models; 120 mg/kg twice daily, 61 models): ~30%
Cc1nn(-c2cccc(N)c2)c(=O)c2cnc(Nc3ccc(N4CCNCC4)cc3)nc12 — IC50 (IGF1R (Homo sapiens, UniProt P08069); kinase activity, inhibitor, SelectScreen kinase profiling): > 10000 nM
CC(=O)[O-].O.O.[O-]c1ccc(Br)cc1C=NCCN1CCOCC1.[Zn+2] — inhibition (superoxide scavenging; 200 µM): 43.2%
CCc1cc(OCCOCCN(C)C)ccc1Cl — larval motion (locomotor activity in dark; zebrafish larvae, 7 dpf; 10 µM, minute 1, dark phase): 4.5 ± 1.8 pixels/frame
CNS(=O)(=O)Nc1nccc(Cc2c(C)c3ccc(Oc4ncccc4F)cc3oc2=O)c1F — IC50 (NCI-H1623; cell viability; 7 days): 40.2 nM
NC[C@@H](C(=O)Nc1ccc(-c2cn[nH]c2)cc1)c1ccccc1 — IOP (tonometry; NZW rabbit, magnetic bead-induced ocular hypertension; ocular, 0.1%, 48 h): 37.5 mmHg
COc1ccccc1C1CCN(CCC(=O)Nc2ccc(C)c(C)c2)CC1 — larval motion (zebrafish larvae, 7 dpf; 10 µM, minute 2): 2.5 ± 1.2 pixels/frame
COc1ccc(C(=O)CCc2cc(C(CCc3ccc(O)cc3OC)c3ccc(O)cc3)c(O)cc2OC)cc1 (racemic) — 14-HDHA level (human blood; 30 µM, together with: A23187): 765 ± 203 pg/mL
Cc1ncsc1-c1ccc(C(C)NC(=O)C2CC(O)CN2C(=O)C(NC(=O)CCCCCCCCCCN2CCCC(Nc3ncc(Cl)c(Nc4ccccc4S(=O)(=O)C(C)C)n3)C2)C(C)(C)C)cc1 (stereo not drawn) — log2 fold change (22Rv1; RNA-seq, refers to: USP46-AS1; concentration not given; relative to: DMSO): -1.31

A few entries again:
COc1cc(O)ccc1CCC(c1ccc(O)cc1)c1cc2c(c(C)c1O)OC(c1ccc(O)cc1)CC2 (mixture of isomers) — 14-HDHA level (human blood; 1 µM, together with: A23187): 583 ± 73 pg/mL
C[C@@H]1CN(c2ccnc(C(=O)N[C@H]3C[C@@H]3c3ccccc3)c2)CC[C@@H]1O — creatine concentration (female heterozygous Slc6a8 P549L mice, brain; oral, 30 mg/kg once daily): 1040 µg/mL and 1170 µg/mL and 1070 µg/mL
CCc1cc(OCCOCCN(C)C)ccc1Cl — larval motion (locomotor activity in dark; zebrafish larvae, 7 dpf; 10 µM, minute 1, dark phase): 4.5 ± 1.8 pixels/frame
CCN(C(=O)c1cc(F)ccc1Oc1nncnc1N1CCC2(C1)CN([C@H](CCCN(C)CCOC)C(C)C)C2)C(C)C — GI50 (MDA-MB-435; cell growth or viability; 72 h): > 10000 nM
